Results gathered from unrelated publications.
A part holds a random share of what one study measured.

Block 1
Target: Ras GTPase-activating protein-binding protein 1, RRM domain (G3BP1, Homo sapiens, UniProt Q13283)
Chain of UniProt Q13283 (whole entry, looked up): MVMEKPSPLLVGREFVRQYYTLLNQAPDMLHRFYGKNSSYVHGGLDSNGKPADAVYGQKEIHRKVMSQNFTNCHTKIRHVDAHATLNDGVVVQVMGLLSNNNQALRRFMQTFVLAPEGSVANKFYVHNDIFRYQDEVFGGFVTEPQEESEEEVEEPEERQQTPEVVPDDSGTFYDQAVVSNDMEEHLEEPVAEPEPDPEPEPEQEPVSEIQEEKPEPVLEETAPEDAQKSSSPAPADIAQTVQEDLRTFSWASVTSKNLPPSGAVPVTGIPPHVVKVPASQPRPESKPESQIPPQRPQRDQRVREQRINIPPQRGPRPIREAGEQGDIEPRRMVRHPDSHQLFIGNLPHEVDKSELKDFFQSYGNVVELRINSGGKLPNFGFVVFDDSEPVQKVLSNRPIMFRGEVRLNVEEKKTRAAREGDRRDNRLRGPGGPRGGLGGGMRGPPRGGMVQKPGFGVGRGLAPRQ
Technique: RNA Bind-n-Seq
Molecule type: RNA
Medium: in vitro
Concentration: 1 µM
Setting: whole 134-nt RNA, ends assumed
Added: 150 mM KCl
Reference: input library
Reading: higher = stronger binding
`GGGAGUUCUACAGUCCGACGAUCCAAGUCCUGUGCUACACAUCGUAUGUACCGAAUCGGUUUGGAAAAAGGUUUUUGGAAAGUAUUAUGUUACGCCGUUCGGAUCUGCACUUCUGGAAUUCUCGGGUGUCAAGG` has a log2 enrichment of -0.202.
With `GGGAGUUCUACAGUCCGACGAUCUCCUGUGCUACACAUCGUAUGUACCGAAUCGGGCCCCCCGGGCCCCCCGGGCCCCCCGGGAAAGUAUUAUGUUACGCCGUUCGGAUCUGCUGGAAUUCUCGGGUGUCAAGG` the log2 enrichment was -0.457.
`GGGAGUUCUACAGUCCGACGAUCGUCCUGUGCUACACAUCGUAUGUACCGAAUCGGGCCCCCCGGCCCCCCGGCCCCCCGGAAAGUAUUAUGUUACGCCGUUCGGAUCUGCACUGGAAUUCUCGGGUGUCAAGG` gave a log2 enrichment of -0.545.
For `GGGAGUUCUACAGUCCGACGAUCCAAGUCCUGUGCUACACAUCGUAUGUACCGAAUCGGGAAAAAGGGUGGGAAAGGGAAAGUAUUAUGUUACGCCGUUCGGAUCUGCACUUCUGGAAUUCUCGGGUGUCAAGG`, the log2 enrichment was 0.812.
`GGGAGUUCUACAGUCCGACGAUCCACAGACAACACGCACCCACACAGACACAGAGGGAAGGGGUUGGGAUGGGGACAGGGAAAACAGCAGGGCGGGGUAGGACCCCAGCCCCUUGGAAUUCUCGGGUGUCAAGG` has a log2 enrichment of -0.0835.
For `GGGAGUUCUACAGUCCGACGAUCUGGCCCUGGUGGCACGCGGGGAGGAAGAGGUGGCCUCAUGGAUCGUGGUGGUCCCGGUGGAAUGUUCAGAGGUGGCCGUGGUGGAGACAGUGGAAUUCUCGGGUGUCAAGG`, the log2 enrichment was 0.884.
`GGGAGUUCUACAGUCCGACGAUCUCAAGUCCUGUGCUACACAUCGUAUGUACCGAAUCGGUUUGGGUUUGGUUUGGGAAAGUAUUAUGUUACGCCGUUCGGAUCUGCACUUCCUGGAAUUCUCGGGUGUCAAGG` gave a log2 enrichment of -0.229.
The log2 enrichment of `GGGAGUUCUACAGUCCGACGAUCUGGGAGGUGGAUUUUGUUUAUUUUUUUAGCUCAUUUCCAGGGGUGGGAAUUUUUUUUUAAUGUGUGUCAUGAAUAAAGUUGUUUUUGAAAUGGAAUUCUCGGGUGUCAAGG` is reported as 2.1.
The log2 enrichment of `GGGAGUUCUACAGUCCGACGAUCUGGCCCUGGUGGCAUGCGGGCAGGAAGAGGUGGCCUCAUGGAUCGUGGUGGUCCCGGUGGAAUGUUCAGAGGUGGCCGUGGUGGAGACAGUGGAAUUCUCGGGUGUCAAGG` is reported as 1.02.
With `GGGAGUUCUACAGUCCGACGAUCGUCCUGUGCUACACAUCGUAUGUACCGAAUCGGUUUUUGGUUUUUUUGGAAAAAAAGGAAAGUAUUAUGUUACGCCGUUCGGAUCUGCACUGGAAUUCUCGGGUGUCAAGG` the log2 enrichment was -0.23.

Block 2
Target: RING finger protein unkempt homolog, zinc fingers 1-6, GST-SBP tag (UNK, Homo sapiens, UniProt Q9C0B0, residues 30-357)
Technique: RNA Bind-n-Seq
Molecule type: RNA
Medium: in vitro
Concentration: not given
Setting: RNA with constant flanks, ends assumed
Reference: input RNA pool
Reading: higher = stronger binding
Residues (chain): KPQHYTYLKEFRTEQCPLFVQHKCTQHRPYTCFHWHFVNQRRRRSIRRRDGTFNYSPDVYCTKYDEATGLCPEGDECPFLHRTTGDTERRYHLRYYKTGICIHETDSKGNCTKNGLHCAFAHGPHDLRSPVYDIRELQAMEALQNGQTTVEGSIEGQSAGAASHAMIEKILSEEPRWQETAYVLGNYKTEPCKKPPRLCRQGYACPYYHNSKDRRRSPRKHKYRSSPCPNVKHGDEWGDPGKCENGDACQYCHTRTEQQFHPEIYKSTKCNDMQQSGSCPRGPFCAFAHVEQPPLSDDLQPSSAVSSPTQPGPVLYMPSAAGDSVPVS
The bound/input enrichment of `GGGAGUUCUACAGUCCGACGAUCCAAUUAUCUCAUGAUGUACGUCAGGCCUUUCCAGUUAUUCCAAACAAUACAAAGUGACAAUACCGUUGGCUUCUAACUAUAGUACAAAUUUGAUUACAGUUAAUAUACUUAAGAUAUUACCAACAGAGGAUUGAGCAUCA` is reported as 1.58 ratio.
`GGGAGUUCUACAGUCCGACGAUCUCGGAGCUAUGCGGUGGUGCUAGAAUUUGUUAUAUUUUCCAUGAGACUUUUGGGCGAACCUCCGAAUCUGUUGAUCCACUUGGUGGCCUUAACACUAUUGACAUUUUGACUGCCAUUAGACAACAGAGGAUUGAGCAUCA` has a bound/input enrichment of 1.27 ratio.
The bound/input enrichment of `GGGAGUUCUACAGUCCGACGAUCUUAAAUAUCUCUGGCUCAAGUGUUCACCCAGUAAAAGAAAGAUCCAGAAAGCACUGUUUUCCGCAUUACGUAUCUGUGUGUUACUGCUGUGUUAUUUACACUGUUUUGUAUUGUACAAUACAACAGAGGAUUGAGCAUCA` is reported as 0.155 ratio.
With `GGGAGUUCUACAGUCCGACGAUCGAUUUUGCCAUGCCCUAUUUCAUCCAGGUCAUGAAGGAGUACUUGACAAAGGUGGAUAAAUCCGAUGCUUCAGAAUCACUGAGAAAAGAAGAAGAACAAGCUACAGAGACACAACCCAUUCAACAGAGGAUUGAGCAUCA` the bound/input enrichment was 0.187 ratio.
`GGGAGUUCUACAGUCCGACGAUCCUCGGCAGCACUGCGCAGCUCUCGAAUCUCUCGUGCUUCAACCUUUCUUUUCUUAUUGUUAACCGGAAAAAAUCAACAUCUGUAAAUUAAGAAUACAGCAAUUAUCUGUACAGUACUGCACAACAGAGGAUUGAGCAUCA` gave a bound/input enrichment of 0.0562 ratio.
The bound/input enrichment of `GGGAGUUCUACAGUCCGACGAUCACCACAGCACUUUGCAGGCAAGCAGGCCAAGAAGCCCUGUCAGUCCUCAGGUUCAGCAAGUCCCCGUGUCCUGAAAGCCACAGAAGUAAACAAGAGCUGCCGGCAGCUGAACAAUCGCUCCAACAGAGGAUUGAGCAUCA` is reported as 0.144 ratio.
`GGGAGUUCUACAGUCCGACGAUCGCUUUUUAUCUUCUAGCAUUUUUUUACUACCUAUAUGGCAUGAUCUAUGUUUUGGUGAGCUCUCCGAACAACACACAGAAGAAUUGGUCCAGUUAAGUGCAUGCAAAAAGCCACCAAAUGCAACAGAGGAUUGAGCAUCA` has a bound/input enrichment of 3.77 ratio.
`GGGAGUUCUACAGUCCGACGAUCUCAUCUACGUUUGCAAUUCCCCAGGAAUUAGAAAAAAGUGUACAGAUGUUUGAAUUAUUUUACCGCCAACAUUUCAGUGGAAGGAAACUUACAUGGUUACAUUAUCUGUGUACAGGUGAACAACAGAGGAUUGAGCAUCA` has a bound/input enrichment of 0.563 ratio.

Block 3
Target: Interferon regulatory factor 7, full length, phosphomimetic (IRF7, Homo sapiens, UniProt Q92985, residues 1-503, S101K/S471D/S472D/S475D/S476D/S477D/S483D/S484D/S487D)
Technique: protein-binding microarray
Molecule type: double-stranded DNA, one strand shown
Medium: in vitro
Concentration: 250 nM
Setting: 60-bp whole probe
Added: salmon DNA 0.4 mg/ml
Reference: random background probes
Reading: higher = stronger binding
Shared flanks, not repeated: GCCTAGCAC … GTCTTGATTCGCTTGACGCTGCTG
Target sequence (chain): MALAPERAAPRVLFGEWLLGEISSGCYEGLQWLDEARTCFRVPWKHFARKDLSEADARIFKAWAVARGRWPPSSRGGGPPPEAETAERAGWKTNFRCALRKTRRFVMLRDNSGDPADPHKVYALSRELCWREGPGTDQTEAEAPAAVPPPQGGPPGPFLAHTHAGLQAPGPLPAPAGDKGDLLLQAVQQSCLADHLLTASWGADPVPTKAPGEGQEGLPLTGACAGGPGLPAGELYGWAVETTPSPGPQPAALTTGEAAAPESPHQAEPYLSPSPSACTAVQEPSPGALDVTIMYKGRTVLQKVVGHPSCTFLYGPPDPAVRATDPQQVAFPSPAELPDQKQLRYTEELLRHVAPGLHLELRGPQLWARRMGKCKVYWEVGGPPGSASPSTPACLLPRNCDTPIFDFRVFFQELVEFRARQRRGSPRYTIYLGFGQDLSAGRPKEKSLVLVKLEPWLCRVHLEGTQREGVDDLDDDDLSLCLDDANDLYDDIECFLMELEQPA
`TTAGGCCTGCTTATCCTTTAGTGCTAG` has a log fluorescence of -0.126 z-score.
With `TTAGGACTGGGGTGTCGGTTAGTGCTA` the log fluorescence was -0.544 z-score.
With `TTTCTTTTATGCTCTTTCTACGTGCTA` the log fluorescence was 1.45 z-score.
`GACGGAATGCTACTGCTGACGTGCTAG` gave a log fluorescence of -0.805 z-score.
`TCATTCCTGAAATCTCTTACTGTGCTA` has a log fluorescence of 1.07 z-score.
For `TTAGGTTTCGACTTACGGTTAGTGCTA`, the log fluorescence was 12.6 z-score.
`TCACTTTTTTTTTTCCCACTGTGCTAG` has a log fluorescence of 1.46 z-score.
With `TTCACTTTAACTTATTCTCTAGTGCTA` the log fluorescence was 0.381 z-score.
With `GACGGACTAGGGACTGGGGACGTGCTA` the log fluorescence was 0.0264 z-score.
For `GATGGTATCGGTATCGGGACGTGCTAG`, the log fluorescence was 1.5 z-score.
The log fluorescence of `TCATGTTTGTGTGTGTAACTGTGCTAG` is reported as 0.111 z-score.
With `TTAGATTTCGGGTTTCGATTGGTGCTA` the log fluorescence was 9.14 z-score.
`CTCTGCTTGCGTCTGGGTGTGTGCTAG` has a log fluorescence of -0.627 z-score.
With `TACGGTTTCGGTTCCGGGACGTGCTAG` the log fluorescence was 12.2 z-score.
With `CTTCCCCTCTAGGTTCTCTGAGTGCTA` the log fluorescence was 1.07 z-score.
`TTAGGTTTGGGGTTTCGGTTAGTGCTA` has a log fluorescence of 5.17 z-score.
For `TTAGATCCCAGTCTCGATTAGTGCTAG`, the log fluorescence was 1.91 z-score.
`GTGGCCTTTGTTTCCAGGCAGTGCTAG` has a log fluorescence of 0.313 z-score.
`TTAGGTTTCGGTATCAGTTAGTGCTAG` has a log fluorescence of 10.6 z-score.
For `TTTTTTTTCTTTAAAAGTGAGTGCTAG`, the log fluorescence was 1.02 z-score.
With `GACGATTTCAGTTCCGACACGTGCTAG` the log fluorescence was 0.793 z-score.
For `TTCTTGCGGAGTTTCTTGCAGTGCTAG`, the log fluorescence was -0.0701 z-score.
With `CTGCCTGTCCATTCCTTCCAGTGCTAG` the log fluorescence was -0.0618 z-score.
For `TTAGGTTTCGGGAATGGGTTAGTGCTA`, the log fluorescence was 2.88 z-score.
`GGCGGTTTCGACTATCGGGACGTGCTA` gave a log fluorescence of 5.38 z-score.

Block 4
Target: Histone acetyltransferase KAT6A, both winged helices, GST fusion (KAT6A, Homo sapiens, UniProt Q92794, residues 1-181)
Technique: protein binding microarray
Molecule type: double-stranded DNA, one strand shown
Medium: in vitro
Concentration: not given
Setting: 8-mer, flanks averaged, mean of 2 arrays, mostly near background
Reference: not given
Reading: higher = stronger binding
Residues (chain): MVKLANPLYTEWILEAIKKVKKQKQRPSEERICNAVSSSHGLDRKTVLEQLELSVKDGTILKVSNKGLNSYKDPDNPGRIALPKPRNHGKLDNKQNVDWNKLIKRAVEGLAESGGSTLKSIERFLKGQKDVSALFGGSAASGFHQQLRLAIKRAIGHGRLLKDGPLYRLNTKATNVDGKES
For `CTTTTACC`, the E-score was -0.112.
With `ACGCACTG` the E-score was 0.113.
`GCAATAAA` gave an E-score of 0.00583.
With `CCGCAGGC` the E-score was 0.249.
With `CACTGAAG` the E-score was -0.0372.
`AGAATGGG` gave an E-score of -0.219.
The E-score of `AACACTAG` is reported as -0.0676.
`CCACGGGG` has an E-score of 0.113.
`ATCCGCAA` has an E-score of 0.0631.
For `AGAAGCAG`, the E-score was -0.245.
For `CCTGGAGA`, the E-score was -0.247.
The E-score of `TCCGGCGA` is reported as 0.224.
For `AGATCGTG`, the E-score was -0.146.
The E-score of `ATGGGCAC` is reported as -0.024.
`ATATAAGG` gave an E-score of -0.127.
For `ATCCATCA`, the E-score was -0.158.
`CCATCTCA` has an E-score of -0.153.
The E-score of `CGATAGGA` is reported as 0.0499.
With `CATGACTA` the E-score was -0.0468.
The E-score of `TAGAGAAA` is reported as -0.124.
`TGCATGAA` has an E-score of -0.0453.
For `GTACGGCA`, the E-score was 0.304.
For `CCGTGAAC`, the E-score was 0.191.
`AATGTATG` has an E-score of 0.0795.
`CCGTGTGA` gave an E-score of 0.157.

A few entries again (block 4):
The E-score of `TCCGGCGA` is reported as 0.224.
For `AGATCGTG`, the E-score was -0.146.
The E-score of `ATGGGCAC` is reported as -0.024.
`ATATAAGG` gave an E-score of -0.127.
For `ATCCATCA`, the E-score was -0.158.
`CCATCTCA` has an E-score of -0.153.
The E-score of `CGATAGGA` is reported as 0.0499.
With `CATGACTA` the E-score was -0.0468.
